Results collected from several papers.
Numbered parts are unrelated; each lists some results of a single study.

Series 1 — technique: protein-binding microarray; form: double-stranded DNA, one strand shown; sample: in vitro; tested at: 0.8 µM; setting: whole 60-bp probe, no competitor; reading: higher = stronger binding; quantity: fluorescence intensity; all sequences stand within: … GTCTTGATTCGCTTGACGCTGCTG
Target: Centromere-binding protein 1, full length, N-terminal tag (CBF1, Saccharomyces cerevisiae, UniProt P17106, residues 1-351)
Sequence of UniProt P17106 (whole entry, looked up): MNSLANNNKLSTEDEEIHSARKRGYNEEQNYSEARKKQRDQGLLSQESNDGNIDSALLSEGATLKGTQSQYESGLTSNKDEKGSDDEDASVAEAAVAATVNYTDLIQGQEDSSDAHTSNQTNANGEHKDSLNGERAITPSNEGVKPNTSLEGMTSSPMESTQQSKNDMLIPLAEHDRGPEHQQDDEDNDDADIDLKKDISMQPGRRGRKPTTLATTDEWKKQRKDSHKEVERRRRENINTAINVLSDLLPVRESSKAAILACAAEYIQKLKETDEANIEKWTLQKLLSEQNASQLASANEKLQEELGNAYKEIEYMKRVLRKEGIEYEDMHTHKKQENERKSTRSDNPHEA
CTAACTGAGACCATCCACGTTGTGGGCACCACCTTC: 501 a.u.
CTATCATTCTTCTCTGATGCACGTTCTTTAGACTTC: 808 a.u.
CTATGTTAATAGGCTCAGCTGTTCATAAAATATTTC: 591 a.u.
GAATAGGACTCAACGTGACTGTCAGTCTTCAGTTAG: 1910 a.u.
CTAAAAAAGAGCACCCTCATGATTTCTTGCTCTTTC: 513 a.u.
CTATGAATAGAACGTGACTCAACAGAAAGTCACTTC: 3860 a.u.
GAAAATACATCTGTGGTCATTTAGCTACTGCAGTAG: 520 a.u.
CTACCATAACCAGATCGTCTGATGCTCTTTTTGTTC: 532 a.u.
CTAATTTAGCAGTAAGCCGTGACTTGTCTAGCCTTC: 615 a.u.
CCTAACTACTATATTAGCGTGCCATAGCTTCGTACA: 510 a.u.
GAAGAGTCCCATCATCACGCCCATCCTTTTGCATAG: 584 a.u.
TGTACGAAGCTATTGCATGTGATTATAGTAGTTAGG: 1600 a.u.
GAATAATGTGCTGCTCAGGTGCCGCGTATATCATAG: 659 a.u.

Series 2 — technique: universal PBM; form: double-stranded DNA, one strand shown; sample: in vitro; tested at: 600 nM; reading: higher = stronger binding; quantity: E-score
Target: Sal-like protein 4, full length isoform A (SALL4, Homo sapiens, UniProt Q9UJQ4, residues 1-1053)
Sequence of UniProt Q9UJQ4 (whole entry, looked up): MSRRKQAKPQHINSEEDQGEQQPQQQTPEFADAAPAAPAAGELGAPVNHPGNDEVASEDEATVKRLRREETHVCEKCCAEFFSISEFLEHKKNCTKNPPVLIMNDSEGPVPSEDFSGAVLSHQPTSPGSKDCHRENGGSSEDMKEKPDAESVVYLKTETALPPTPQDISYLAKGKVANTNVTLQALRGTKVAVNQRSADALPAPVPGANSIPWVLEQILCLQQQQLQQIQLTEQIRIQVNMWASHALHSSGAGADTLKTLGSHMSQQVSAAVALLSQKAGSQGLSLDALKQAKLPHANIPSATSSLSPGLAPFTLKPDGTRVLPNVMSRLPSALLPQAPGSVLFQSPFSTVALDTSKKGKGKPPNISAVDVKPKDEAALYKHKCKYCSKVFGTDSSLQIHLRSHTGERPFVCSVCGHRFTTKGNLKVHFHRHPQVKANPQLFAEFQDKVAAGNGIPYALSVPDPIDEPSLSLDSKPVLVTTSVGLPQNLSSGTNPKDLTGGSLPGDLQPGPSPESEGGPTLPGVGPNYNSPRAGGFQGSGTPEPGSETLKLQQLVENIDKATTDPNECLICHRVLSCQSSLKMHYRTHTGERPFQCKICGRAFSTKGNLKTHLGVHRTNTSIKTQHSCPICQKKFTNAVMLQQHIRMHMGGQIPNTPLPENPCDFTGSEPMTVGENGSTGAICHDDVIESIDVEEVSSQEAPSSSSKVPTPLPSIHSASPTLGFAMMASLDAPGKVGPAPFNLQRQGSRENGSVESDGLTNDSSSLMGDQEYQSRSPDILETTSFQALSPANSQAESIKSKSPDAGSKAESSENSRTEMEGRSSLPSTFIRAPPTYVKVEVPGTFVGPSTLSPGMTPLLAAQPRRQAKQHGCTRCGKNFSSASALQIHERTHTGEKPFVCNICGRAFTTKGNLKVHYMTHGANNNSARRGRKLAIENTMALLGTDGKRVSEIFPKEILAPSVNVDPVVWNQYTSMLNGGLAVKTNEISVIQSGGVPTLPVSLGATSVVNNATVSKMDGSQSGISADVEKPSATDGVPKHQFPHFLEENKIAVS
Setting: 8-mer, flanks averaged, mean of replicates
ACCCCACA: -0.125
ATCATTAC: 0.3
AAAGTTAC: 0.158
AATTAGGA: 0.263
AAACTGAA: 0.182
ATCATTTA: 0.336
ATGCGCTA: 0.0395
ATGCCCAA: -0.0521
ACGGTATC: 0.00553
CACACAGG: -0.0175
ACGGTCTG: -0.171
ACGCGGGG: -0.267
AAGGTCCG: -0.382
AACGGACA: -0.0623
CCCAAGAG: -0.149
CGGAGTAA: -0.0864
AAGTGAGG: -0.0417
GGTACTCA: -0.00905
AACTATAC: 0.245
AAGTGCCC: -0.264
ACAGGCCG: -0.255
GGACTGTA: 0.0144
ATCTAGAT: 0.107
TCCCCGAA: -0.136
ATGTGACG: 0.0514

Series 3 — technique: RNA Bind-n-Seq; form: RNA; sample: in vitro; tested at: 200 nM; setting: whole 134-nt RNA, ends assumed; with: 150 mM KCl; relative to: input library; reading: higher = stronger binding; quantity: log2 enrichment
Target: Fragile X messenger ribonucleoprotein 1, C-terminal low-complexity region (Fmr1, Mus musculus, UniProt P35922)
All sequences stand within: GGGAGUUCUACAGUCCGACGAUC … UGGAAUUCUCGGGUGUCAAGG
AAGUCCUGUGCUACACAUCGUAUGUACCGAAUCGGUUUUUGGAAAAAGGUUUUUGGAAAGUAUUAUGUUACGCCGUUCGGAUCUGCACUU: -1.12
GCAGGAAGUAAAAACAAAUGGAAAUGCUUCGGAUAGUGGCAGGUGUGGGGGUUGCUAAGGAAAGGGUGGGAUGGGAGUGGGUAAAGAGUU: 0.322
GUCCUGUGCUACACAUCGUAUGUACCGAAUCGGGUUUUUGGGAAAAAGGGAAAAAGGGAAAGUAUUAUGUUACGCCGUUCGGAUCUGCAC: -0.476
GCAGGAAGGAAAAACAAAUGGAAAUGCUUCGGAUAGUGGCAGGGGUGGGGGUUGCUAAGGAAAGGGUGGGAUGGGAGUGGGUAAAGAGUU: 0.774
UGGCCCUGAUGGCAUGCGGGGAGGAAGAGGUGGCCUCAUGGAUCGUGGUGGUCCCGGUGGAAUGUUCAGAGGUGGCCGUGGUGGAGACAG: -0.0444
UUCCAGGCUCAAGCACGGACAUCAGUGAGGACUGGGAGAAAGACUUUGACUUGGACAUGACUGAAGAGGAGGUGCAGAUGGCACUUUCCA: -0.402
UGGGAGGUGGAUUUUGUUUAUCUUUUUAGCUCAUUUCCAGGGGUGGGAAUUUUUUUUUAAUAUGUGUCAUGAAUAAAGUUGUUUUUGAAA: 0.289
CCUGUGCUACACAUCGUAUGUACCGAAUCGGUUUUUUUGGUUUUUUUGGGUUUUUUUGGGGAAAGUAUUAUGUUACGCCGUUCGGAUCUG: -1.06
UCAAGUCCUGUGCUACACAUCGUAUGUACCGAAUCGGGAGGGAGGGAAAAAGGGAAAGUAUUAUGUUACGCCGUUCGGAUCUGCACUUCC: 0.927
GUCCUGUGCUACACAUCGUAUGUACCGAAUCGGGUUUUUGGUUUUUGGGUUUUUGGGGAAAGUAUUAUGUUACGCCGUUCGGAUCUGCAC: -0.194
CUGUGCUACACAUCGUAUGUACCGAAUCGGGGCCCCCCCGGCCCCCCCGGGCCCCCCCGGGGAAAGUAUUAUGUUACGCCGUUCGGAUCU: -1.01
UAACUUUAGAGGAGGAUCUGAUGGAUAUGGCAGUGGACGUGGAUUUGGGGAUGGCUAUAAUGGGUAUGGAGGAGGACCUGGAGGAGGCAA: 0.0908
UAACUUUAGAGGAGGAUCUGAUGGAUAUGGCAGUGGACGUGGAUUUGGGGAUGGCUAUAAUGGGUAUCGAGGAGGACCUGGAGGUGGCAA: 0.172
ACCAUGCAGGUGGGCAUCUUUGGGAAGUGGGCCAAGGGGGGGAUAGGGAGGGGGGUAACACUUUGGGAACAGGUGGUCCCAGGUCGUUUC: 0.927

Series 4 — technique: protein binding microarray; form: double-stranded DNA, one strand shown; sample: in vitro; tested at: not given; relative to: not given; reading: higher = stronger binding; quantity: E-score
Target: Histone acetyltransferase KAT6A, both winged helices, GST fusion (KAT6A, Homo sapiens, UniProt Q92794, residues 1-181)
Setting: 8-mer, flanks averaged, mean of 2 arrays, mostly near background
Residues (chain): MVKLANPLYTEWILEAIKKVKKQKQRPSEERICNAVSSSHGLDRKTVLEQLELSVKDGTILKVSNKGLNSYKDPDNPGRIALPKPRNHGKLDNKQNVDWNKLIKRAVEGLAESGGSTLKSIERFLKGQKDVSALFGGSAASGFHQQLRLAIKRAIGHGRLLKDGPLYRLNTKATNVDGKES
CCCTCGAA: -0.193
TACCTCAA: -0.136
CCTGTTTA: 0.00114
CAGTAGTA: -0.142
CAAAATGC: -0.00406
GATAGTGA: 0.0199
AACGTAGT: -0.0895
AAATTGTT: -0.00282
CGCATAAC: 0.181
AATAAGAG: -0.191
GGCACAAA: 0.0297
CCTTACCC: 0.0288
CGTACTAC: 0.157
CCCCACTA: -0.222
ACAGGGAA: -0.296
CTCTTTGC: -0.0982
GCGATACC: 0.205
ATCAGGAA: -0.139
ACCATGTC: 0.0505
CGCCACCG: 0.114

Series 5 — technique: RNA Bind-n-Seq; form: RNA; sample: in vitro; tested at: 365 nM; relative to: no-protein control; reading: higher = stronger binding; quantity: RBNS enrichment (R)
Target: RNA binding protein fox-1 homolog 2, RRM domain, GST-SBP tag (RBFOX2, Homo sapiens, UniProt O43251-10, residues 100-194)
Setting: natural RNA segment, single round, ends assumed
All sequences stand within: GGGAGUUCUACAGUCCGACGAUC … UGGAAUUCUCGGGUGCCAA
Target sequence (chain): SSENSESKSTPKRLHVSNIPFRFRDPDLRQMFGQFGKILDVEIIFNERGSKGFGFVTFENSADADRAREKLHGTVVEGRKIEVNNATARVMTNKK
AGACCAAAUCAGAAAACCCCCCACCCCAGGCUUCCCAAUAAGAUGAUCGGCACCAGAAUCCACUGUCAAUAGGCCCGUGGGUGAUCAUUACAAUUGCAAAUCUUUACUUA: 0.436
GACACUAGAGAUGCCCAUUCCUACUCCCUCCCUUUGGUCACUAGCCACCAUUAUGGUUCCACUGGCUGUUUGUAUAUAGGGUUAUGUAUUAACUCUAGAAUCCCGUGUGC: 0.757
GUCGUUAGGACCAAAUGUAGACUGGCUCAGGACCUGUAAGGAAAUCACAGGUUCAGAGAUCUCUUAGGGAAGUUGCUCAAAAUCCUGUUUGUAGUUAAGGUGUCUGGGGU: 1.04
AGGAGGCAGCUGCUGCUCAGACGGAGGGGCCUUCAACACCAUCUAGUUUUCCAGCCCAGGAAGAACACAGGGAAAAACCAGGAAGGGAUGUUCUAGAACCCACACAAGCG: 0.294
UAGGGUACAUGUGCACAUUGUGCAGGUUAGUUACAUAUAUAUACAUGUGCCAUGCUGGUGCGCUGCACCCACUAACUCGUCAUCUAGCAUUAGGUAUAUCUCCCAAUGCU: 0.824
CGGACACCACCUAGCUGCAGCAAACAUCUGGCCAGCAGCAGCUUUCAAUAAAUCUACAGCAAACAAAGCUUAGCAAAUGUUUUAUUUGUGUUGAGUAUGCAGUGUCUCUG: 0.26
CCUGACGGUAAACUCUUCCCUCUUCGGGGGCAGACCCCAUACCCCGGGGCGGGUGCUUAGGCUUUCCUGCCCUGGUGGCCACACCAGCUGCUGUAUUUAUGUGCUUCAUA: 0.239
UGUAGAAUUGUGAAUAUAACGAAACUGCAAAAAGUUAGUCUUAUGUAUAGACAUUAUUUUCGUCGUAUGUUUCUAUAUUUUGAAACAAAGGUAUGUAACUUCUUCAUUUG: 0.593
UUUGAUAAGCCUUCUGCUCACAUUUUUGUGAAUGUCUGAAGUAUAUAGUUUGUGUAUAUUGACAGAGCUCUUUUAUAACUAAAGCAAAUUUAAUUUUUUUGUACUAGAAA: 1.07
UAAUCCCAGGAACCACUAGCAGUAGUGGGGCGCCGCCAAUCUAACAUGAGCACAGGUGCUUCAUGACAAACAUUACUAGCAUGUUCAACUGCACCAUGUUCUGGCACUGU: 0.43
CUAGCCUAAGUAGGAAGUGAAAAGAUAAUUCACCAAACAAUGAUUAAUCAGAUAGAAGUUCUAGUCAAGAGGGAUAUUGUUGAAGUUACCUCUUUUAGCCUAGAUACAUG: 0.326
AAUGCAUGUUUUGAGAUGUUUGACCACUUCAGCAACUACGUCAGUGGCUUCAGGAUCGGGUGUACUGUUCUCAUAACCUUGGGAGGAGAAAGAGAAAGAGAGCGGCUGCU: 22.7

Repeated from above (series 2):
ATCATTAC: 0.3
AACGGACA: -0.0623
TCCCCGAA: -0.136
GGTACTCA: -0.00905
CCCAAGAG: -0.149
CGGAGTAA: -0.0864
AATTAGGA: 0.263
